Assay results from different studies.
Target: Peroxisome proliferator-activated receptor gamma (PPARG, Homo sapiens, UniProt P37231)
Sequence (P37231 238-503, limits assumed, as in one of the studies): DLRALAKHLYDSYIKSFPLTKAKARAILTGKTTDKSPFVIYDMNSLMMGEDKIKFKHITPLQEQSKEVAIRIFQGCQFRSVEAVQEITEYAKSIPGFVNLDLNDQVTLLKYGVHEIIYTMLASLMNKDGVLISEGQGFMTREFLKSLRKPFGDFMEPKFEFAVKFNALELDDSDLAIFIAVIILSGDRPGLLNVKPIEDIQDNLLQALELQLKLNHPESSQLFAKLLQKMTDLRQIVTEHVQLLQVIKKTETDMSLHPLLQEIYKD

| SMILES | test | test system | conditions | scale | endpoint | result |
| --- | --- | --- | --- | --- | --- | --- |
| COc1cccc2c(Nc3ccc4[nH]c(C(=O)N/N=C/c5ccc(SC)cc5)cc4c3)cc(C)nc12 | reporter gene, Gal4 hybrid reporter |  | 3 µM | reference: vehicle | activation | 1.12 fold |
| CCO[C@@H](Cc1ccc(OCCc2ccc(OS(C)(=O)=O)cc2)cc1)C(=O)O | ITC |  | binary complex no Med1 |  | binding free energy | -8.82 kcal/mol |
| CCC(=O)NS(=O)(=O)c1ccc(-c2c(-c3ccccc3)noc2C)cc1 | reporter gene, Gal4 hybrid reporter |  | 50 µM | reference: vehicle | activation | 4.22 fold |
| CC(C)(Oc1ccc(CCNC(=O)c2ccc(Cl)cc2)cc1)C(=O)O | reporter gene, agonist, β-lactamase reporter | HEK293-H cells | 24 h, nominal concentration | reference: 10% of rosiglitazone maximum effect | EC10 | 3.09 µM |
| CCN1CCN(c2cc(N3CCN(CC)CC3)nc(NCCNc3ccnc4cc(Cl)ccc34)n2)CC1 | reporter gene, Gal4 hybrid reporter |  | 20 µM | reference: vehicle | activation | 2.11 fold |
| CC(C)(Oc1ccc(CCNC(=O)c2ccc(Cl)cc2)cc1)C(=O)O | ITC |  | binary complex no Med1 |  | binding free energy | -6.16 kcal/mol |
| O=c1[nH]c2ccccc2s1 | reporter gene, agonist, β-lactamase reporter | HEK293-H cells | nominal concentration | reference: cytotoxicity IC10 over EC10 | specificity ratio | 26.7 |
| CN(CCOc1ccc(CC2SC(=O)NC2=O)cc1)c1ccccn1 (stereo not shown) | ITC |  | binary complex no Med1 |  | binding free energy | -6.58 kcal/mol |
| CCO[C@H](COc1ccc(C(F)(F)F)cc1)CSc1ccc(OCC(=O)O)c(C)c1 | receptor activation, agonist, cell-based |  |  |  | Emax | 83% |
| CC(C)(Oc1ccc(Cl)cc1)C(=O)O | reporter gene, agonist, β-lactamase reporter | HEK293-H cells | freely dissolved concentration |  | EC10 | 18.6 µM |
| CCOC(=O)c1ccc(NC(=O)c2cc3cc(S(N)(=O)=O)ccc3oc2=O)cc1 | ELISA, measured: PPARγ protein |  | concentration not given | reference: control | fold change | 1.6 |
| CN(CCOc1ccc(C[C@H](Nc2ccccc2C(=O)c2ccccc2)C(=O)O)cc1)c1ccccn1.O | binding, frontal affinity chromatography-MS |  | 0.5 µM, equimolar ligand mixture |  | breakthrough time | 34.5 min |
| O=C(O)CCCc1cc2cc(Cl)ccc2n1S(=O)(=O)c1ccc2ncsc2c1 | receptor activation, agonist, cell-based |  |  |  | Emax | 91% |

Repeated from above:
| SMILES | test | test system | conditions | scale | endpoint | result |
| --- | --- | --- | --- | --- | --- | --- |
| CN(CCOc1ccc(C[C@H](Nc2ccccc2C(=O)c2ccccc2)C(=O)O)cc1)c1ccccn1.O | binding, frontal affinity chromatography-MS |  | 0.5 µM, equimolar ligand mixture |  | breakthrough time | 34.5 min |
| O=C(O)CCCc1cc2cc(Cl)ccc2n1S(=O)(=O)c1ccc2ncsc2c1 | receptor activation, agonist, cell-based |  |  |  | Emax | 91% |
